Experimental data from different studies.
Parts stem from different laboratories: compare values within a part only. Substitutions count along the parent as printed.

Study 1
Target: CCND3, cyclin fold, Cln2 fusion (human)
Technique: yeast growth competition, sequencing
Matrix: yeast
Setting: weak parent motif
Baseline: not given
Reading: higher = stronger binding
Parent: ASZ1 docking peptide (human); GFGFLLFICKLTF
| Substitution | normalised enrichment score |
| --- | --- |
| GFGALLFICKLTF [F4A] | 0.0961 |
| AFGFLLFICKLTF [G1A] | -0.11 |
| GFGFLLFICKLTA [F13A] | 0.405 |
| GAGFLLFICKLTF [F2A] | -0.0606 |
| GFGFLLFICKLAF [T12A] | -0.122 |
| GFGFLLFIAKLTF [C9A] | 0.435 |
| GFGFLLFACKLTF [I8A] | -0.0445 |

Study 2
Target: Histone acetyltransferase KAT6A, winged helix 1, GST fusion (KAT6A, Homo sapiens, UniProt Q92794, residues 1-85)
Technique: protein binding microarray
Form: double-stranded DNA, one strand shown
Matrix: in vitro
Tested at: not given
Setting: 8-mer, flanks averaged, mean of 2 arrays, mostly near background
Baseline: not given
Reading: higher = stronger binding
Residues (chain): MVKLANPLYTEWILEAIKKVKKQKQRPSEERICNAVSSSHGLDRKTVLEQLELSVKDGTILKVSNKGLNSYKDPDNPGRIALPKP
| Strand | E-score |
| --- | --- |
| AGGAATTG | -0.187 |
| ATTCAGAC | -0.25 |
| GGGGCCCA | -0.0781 |
| ACTATATC | -0.164 |
| ACATCACT | -0.12 |
| CTTGGATC | -0.16 |
| CGCGTACC | 0.331 |
| AGAGCGCG | 0.338 |
| AATCGCAT | -0.0059 |
| CCGGTATA | 0.227 |
| CGGTACCC | 0.237 |
| ATGAAGTC | -0.186 |
| TCCTGCAA | -0.282 |
| AACGACAC | -0.212 |
| AATTTAAA | -0.297 |
| CACACGCC | 0.11 |
| CAGTGTAA | -0.0901 |
| AATCGTCA | -0.206 |
| ATTATGCA | -0.186 |
| ACCTAGTG | -0.19 |
| CAGCCCGC | 0.194 |

Study 3
Target: CREB5, bZIP domain (human)
Technique: DHFR protein complementation
Matrix: yeast
Setting: single substitutions, most at no-binding floor
Baseline: wild-type JUN-FOS pair
Reading: higher = stronger binding
Parent: JUN, bZIP domain (human); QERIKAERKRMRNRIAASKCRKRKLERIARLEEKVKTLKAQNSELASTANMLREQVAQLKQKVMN; partner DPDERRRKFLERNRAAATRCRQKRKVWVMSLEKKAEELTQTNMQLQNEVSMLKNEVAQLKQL
| Substitution | binding fitness |
| --- | --- |
| A29E | -0.33 natural log |
| A49V | -0.536 natural log |
| V35M | -0.716 natural log |
| A40Y | -0.621 natural log |
| E32T | -0.516 natural log |
| I28H | -0.401 natural log |
| A49I | -0.486 natural log |
| K34D | -0.663 natural log |
| L38T | -1.34 natural log |
| S47M | -0.324 natural log |
| V56F | -1.08 natural log |
| E32S | -0.526 natural log |
| I28E | -0.381 natural log |
| A46L | -0.252 natural log |
| V56Y | -0.955 natural log |
| K34N | -0.613 natural log |
| T48K | -0.295 natural log |
| T48G | -1.19 natural log |
| T37P | -1.4 natural log |

Other studies, line by line
| Molecule | target | test | system | setting | scale | endpoint | result |
| --- | --- | --- | --- | --- | --- | --- | --- |
| PhoQ, residues 284 288 289 292 302 303 NLMGRA | PhoP, residues 12 14 15 18 19 GQALL (Escherichia coli, UniProt P23836) | Sort-seq, refers to: YFP reporter | E. coli | PhoQ-PhoP variant library, with: 10 µM Mg2+ | baseline: high Mg2+ state, higher = stronger signaling | fold induction | 23.6 |

Repeated from above (study 2):
| Strand | E-score |
| --- | --- |
| CAGTGTAA | -0.0901 |
| AATCGTCA | -0.206 |
| ATTATGCA | -0.186 |
| ACCTAGTG | -0.19 |
| CAGCCCGC | 0.194 |
